Measurements collected from several papers.
Each numbered part is a random draw from the data of one study; scales do not carry over between parts. Substitutions count along the parent as printed.

Sample 1 — technique: RNAcompete; form: RNA; medium: in vitro; concentration: 20 nM; notes: 7-mer, probes averaged, single round; relative to: mean of 7-mers; direction: higher = stronger binding; quantity: 7-mer Z-score
Target: PABPC1L2, full length, GST fusion (mouse, UniProt A0ABA7IW68)
Construct (chain): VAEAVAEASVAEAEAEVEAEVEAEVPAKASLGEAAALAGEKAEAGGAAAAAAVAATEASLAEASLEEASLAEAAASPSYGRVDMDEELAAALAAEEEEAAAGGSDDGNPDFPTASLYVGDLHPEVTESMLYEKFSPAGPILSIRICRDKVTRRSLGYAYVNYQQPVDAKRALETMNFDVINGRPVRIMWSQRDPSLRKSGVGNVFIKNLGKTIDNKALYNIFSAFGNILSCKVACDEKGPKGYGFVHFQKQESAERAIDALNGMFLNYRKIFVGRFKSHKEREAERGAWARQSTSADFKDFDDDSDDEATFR
GGACCGG: 0.144
GACUGGA: 0.0895
AUGGGAU: 0.244
CGCGCGG: -0.206
GGUUACU: -0.117
AGCGGUG: 0.00979
UGCUGUA: -0.253
AAUACGU: -0.0373
UCGAGAC: -0.0573
CCUGCUG: -0.269
UGGUCUU: -0.378
GCCAUUA: -0.251
UGUUCAG: -0.347
CAUCCAA: 0.0352
UUAAUGA: -0.0772
AAGACCA: 0.535
UACUGAC: -0.255
AGUGGUU: -0.195
GCUGGGC: 0.037
UUAGAAC: -0.0428
UCUCCCC: -0.452
GACCCGC: -0.394
GUACUGU: -0.191
AACUAAA: 1.47
UUAGGCU: -0.208

Sample 2 — technique: protein binding microarray; form: double-stranded DNA, one strand shown; medium: in vitro; concentration: not given; relative to: not given; direction: higher = stronger binding; quantity: E-score
Target: Histone acetyltransferase KAT6A, both winged helices, GST fusion (KAT6A, Homo sapiens, UniProt Q92794, residues 1-181)
Notes: 8-mer, flanks averaged, mean of 2 arrays, mostly near background
Residues (chain): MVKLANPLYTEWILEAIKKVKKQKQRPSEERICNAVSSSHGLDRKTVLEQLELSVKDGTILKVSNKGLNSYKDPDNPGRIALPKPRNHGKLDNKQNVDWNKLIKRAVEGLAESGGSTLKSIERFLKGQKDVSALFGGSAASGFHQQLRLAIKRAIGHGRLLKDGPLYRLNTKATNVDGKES
CATGATTA: -0.0355
GATCACGC: 0.183
GAGGTTAA: -0.093
CTAAAAAA: -0.133
ATCCTACA: -0.213
AACGATCC: -0.0481
AACATCCA: -0.148
CGATTGCA: 0.047
CCGAGGTC: 0.0529
CGCCTGAG: 0.121
ACACCCGG: 0.117
AGCATATG: -0.153
GGGATCAC: -0.0908
GACGTTAA: 0.0874
CAATTGCC: 0.0473
CGAGATCA: -0.0378
CGTTAATA: 0.12
AATGCAGA: -0.0554
AGCCCAGG: -0.172
CAATGGGA: -0.054
AAGGCAGC: -0.0429
CACTTGAA: -0.134

Sample 3 — target: ATF5, bZIP domain (human); technique: DHFR protein complementation; medium: yeast; relative to: wild-type JUN-FOS pair; direction: higher = stronger binding; quantity: binding fitness
Notes: single substitutions, most at no-binding floor
Parent: JUN, bZIP domain (human); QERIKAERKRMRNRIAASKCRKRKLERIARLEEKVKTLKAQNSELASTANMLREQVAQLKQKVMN; partner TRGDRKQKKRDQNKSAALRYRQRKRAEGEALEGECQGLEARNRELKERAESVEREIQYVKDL
M51Q: -1.46 natural log
M51K: -1.37 natural log
K34L: -1.56 natural log
T48Q: -1.5 natural log
E33C: -1.51 natural log
V56Q: -1.58 natural log
Q55Y: -1.3 natural log
K36G: -1.51 natural log
R53A: -1.48 natural log
T48G: -1.5 natural log
V56L: -1.35 natural log
V56P: -1.47 natural log
E33S: -1.31 natural log
T48Y: -1.53 natural log
L38V: -1.51 natural log
K34P: -1.5 natural log
A57R: -1.44 natural log
T37C: -1.49 natural log
K34R: -1.42 natural log
E54S: -1.53 natural log
R53S: -1.52 natural log
L52R: -1.55 natural log

Sample 4 — technique: protein-binding microarray; form: double-stranded DNA, one strand shown; medium: in vitro; concentration: 250 nM; notes: 60-bp whole probe; with: salmon DNA 0.4 mg/ml; relative to: random background probes; direction: higher = stronger binding; quantity: log fluorescence; shared flanks, not repeated: GCCTAGCAC … GTCTTGATTCGCTTGACGCTGCTG
Target: Interferon regulatory factor 7, full length, phosphomimetic (IRF7, Homo sapiens, UniProt Q92985, residues 1-503, S101K/S471D/S472D/S475D/S476D/S477D/S483D/S484D/S487D)
Construct (chain): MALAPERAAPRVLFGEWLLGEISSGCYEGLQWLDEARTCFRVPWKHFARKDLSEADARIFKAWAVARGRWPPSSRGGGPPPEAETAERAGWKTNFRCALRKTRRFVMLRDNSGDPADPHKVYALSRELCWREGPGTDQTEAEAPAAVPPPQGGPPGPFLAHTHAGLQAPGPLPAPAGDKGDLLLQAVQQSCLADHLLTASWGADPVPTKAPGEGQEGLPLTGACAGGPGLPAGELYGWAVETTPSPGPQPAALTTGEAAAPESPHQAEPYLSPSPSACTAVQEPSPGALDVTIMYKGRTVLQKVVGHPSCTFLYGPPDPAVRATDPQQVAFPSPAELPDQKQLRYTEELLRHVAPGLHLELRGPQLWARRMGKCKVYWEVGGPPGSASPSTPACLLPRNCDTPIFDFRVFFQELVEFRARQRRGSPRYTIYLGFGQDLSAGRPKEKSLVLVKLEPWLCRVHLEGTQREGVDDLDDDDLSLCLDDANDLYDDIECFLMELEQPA
TTAGGACTGGGTTTCGGTGAGTGCTAG: 1.12 z-score
GACGGTCTCCTTTTCCTGATGTGCTAG: 1.09 z-score
GACGATTTCGGTTTCGAGACGTGCTAG: 7.4 z-score
GTGGGTTTGAGTCTTCTCCTGTGCTAG: -0.921 z-score
TCAGGTTTCACTTTAAAACTGTGCTAG: 10.4 z-score
GTGTTTTTCTCCTATTTAAGAGTGCTA: 2.05 z-score
TGTCTGTCTGTCACCCGGACGTGCTAG: 0.223 z-score
CTCATTCTCCACTTGTGTTTGTGCTAG: 1.79 z-score
TCTTTTTGCACTCTCTACATGTGCTAG: 1.79 z-score
GACGGTTCCGATTTCGGGACGTGCTAG: 2.76 z-score
GACGGTTTGGGTTTCGGGACGTGCTAG: 2.04 z-score
GACGGTTTCAGTATCGAGACGTGCTAG: 2.7 z-score
TTAGATTTCGGGACTGGAATAGTGCTA: 0.757 z-score
GACGATTACGGGTTTCGAGACGTGCTA: 2.85 z-score
TCACCTTAGGTTTTCTGACTGTGCTAG: 0.564 z-score
GACGGACTTGGTATCGGGACGTGCTAG: 0.0746 z-score
CTCTGTCCCCCTTTTATATTGTGCTAG: 0.406 z-score

Sample 5 — technique: RNA Bind-n-Seq; form: RNA; medium: in vitro; concentration: 365 nM; relative to: no-protein control; direction: higher = stronger binding; quantity: RBNS enrichment (R)
Target: RNA binding protein fox-1 homolog 2, RRM domain, GST-SBP tag (RBFOX2, Homo sapiens, UniProt O43251-10, residues 100-194)
Notes: natural RNA segment, single round, ends assumed
Shared flanks, not repeated: GGGAGUUCUACAGUCCGACGAUC … UGGAAUUCUCGGGUGCCAA
Construct (chain): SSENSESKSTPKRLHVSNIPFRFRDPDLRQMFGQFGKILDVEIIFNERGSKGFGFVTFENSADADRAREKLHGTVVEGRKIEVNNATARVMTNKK
AUAGCCAGAUAGUUAGAAAAAGAUUUUCAUUGAUGACAUAUCUUUAAACUUUCUUGCAUCAGUAUUCUAAAUUGAGCAAACUGAAAGAUUUUCAUCAGGAAAGGAGCACU: 0.368
CGGCUUAAGCCAGCCCCCGACUGGCCUGGCCACACUGCUCUCCAGUAGCACAGAUGUCUGCUCCUCCUCUUGAACUUGGGUGGGAAACCCCACCCAAAAGCCCCCUUUGU: 0.408
UCAGAGUAAACUGCCUUGUCUUCCUCAGGUUUUGGAGCCCUGUGAGUUCAAUAAACCUUUUAUGUGGAAGAGAUUCGUCCUUAAGAUGUGUAUGUGGACAGUUCCCUGAG: 0.616
AUUAGGUGUUAAGAGUUUCCAAACGUGUUUUCUUUUUUCUUUUAUUGUUUGCUUAAACUUUGAAGAAAUAUGUGCCUCAGCUUAGAUGUUUUGUCUUCCCCUUUCUGCAC: 0.773
AAGGCUGCUGCUGUGUCAUUCGGUGCCUUUGUGAGUUUCCUUGCUGUAGGUGAUUCUUGACUGUGGGGAUUGGAAUUUGAGGCAGAAGUUACCAUCCCUACUACAUUUUU: 0.722
AUCCUAGUGUCCCUCCCUCCUGCAUCUCCUGGUCUCCUUCUCCAGGACCUUCCCAGCUUCCCCUCAGGGUCCACAUCUUGAGCUUAAUAAAUGUGCAUUCGUUUUUUCCC: 1.15
ACAGUUUGUCUCAGAGGAAUCCAAGGAUUCUUUUUCAGACAAGUUGUAGGUCCCGCAUACAUGUCCACCAGGACAUUAGACAGUCGUAAAGAUGCAGAACGAACAGUUUG: 0.321
AGGGACAGGUGGGAGAAUGGGUGUAGGAGGCAGGCCCCAGGCUCUGCUUCUUGGUGACAGUUGGCCAGAGCCCUGUAUGCUUUGAUUUUUUUGUACUUAAAAAGAAAAAA: 0.988
CACUUGUUUCUGUGUAGGAGGUUGAGCUUGUCUUCCAAAAGCCAAGGCGAUGCUACACUGUCCUGUUCCCGAGAUACCUCGCCCUGAACAGAGAUAUAUUUUGUACAAAA: 0.275
UAAAGACAAGCAGGAGGGUCGACAUGGACUGAAUCACCCUCUGCAGCUGGGAGGGCUCUUCUGGGCGUCCGGGCAGCUGCAGCUGAGAGGACUUUCACACCAUAAGGAGA: 0.385
UUUAAAAAGCAAAAUUAUAGAAGUUUAGAUUUUAAUCAAAUUUGUAGGGUUUCUAGGUAAUUUUUACAGAAUUGCUUGUUUGCUUCAACUGUCUCCUACCUCUGCUCUUG: 0.82
UUUUUGGAAGGUGCCUAAUGCUUAGGAUAGUCUCUAGGGUGAUGCACUGCACCUGCUUCCUUCCCUUCAGUGCGGCCGACCCAUUUCUGUUGAACAGAUGUCUCCUGUGU: 0.914

A few entries again (sample 4):
TTAGGACTGGGTTTCGGTGAGTGCTAG: 1.12 z-score
GACGGTCTCCTTTTCCTGATGTGCTAG: 1.09 z-score
GACGATTTCGGTTTCGAGACGTGCTAG: 7.4 z-score
GTGGGTTTGAGTCTTCTCCTGTGCTAG: -0.921 z-score
TCAGGTTTCACTTTAAAACTGTGCTAG: 10.4 z-score
GTGTTTTTCTCCTATTTAAGAGTGCTA: 2.05 z-score
TGTCTGTCTGTCACCCGGACGTGCTAG: 0.223 z-score
CTCATTCTCCACTTGTGTTTGTGCTAG: 1.79 z-score
TCTTTTTGCACTCTCTACATGTGCTAG: 1.79 z-score
GACGGTTCCGATTTCGGGACGTGCTAG: 2.76 z-score
GACGGTTTGGGTTTCGGGACGTGCTAG: 2.04 z-score
GACGGTTTCAGTATCGAGACGTGCTAG: 2.7 z-score
TTAGATTTCGGGACTGGAATAGTGCTA: 0.757 z-score
GACGATTACGGGTTTCGAGACGTGCTA: 2.85 z-score
TCACCTTAGGTTTTCTGACTGTGCTAG: 0.564 z-score
GACGGACTTGGTATCGGGACGTGCTAG: 0.0746 z-score
